Published values from different studies.
Compare with care: the assays were run in different laboratories. ± gives the spread as reported.

Compound | target or system | assay | system | setting | how to read | endpoint | value
O=Cc1c(O)ccc2ccccc12 | HUVEC | RNA sequencing, item: IL13RA2 |  | 75 µM, 24 h | baseline: DMSO | log2 fold change | 5.28
CC(C)C[C@H](NC(=O)[C@@H](CCCCNC(=O)CCCCCNC(=O)CN1CCN(CC(=O)O)CCN(CC(=O)O)CCN(CC(=O)O)CC1)NC(=O)[C@H](Cc1ccc(O)cc1)NC(=O)[C@H](CO)NC(=O)[C@H](Cc1c[nH]c2ccccc12)NC(=O)[C@H](Cc1cnc[nH]1)NC(=O)[C@@H]1CCC(=O)N1)C(=O)N[C@@H](CCCNC(=N)N)C(=O)N1CCC[C@H]1C(=O)NCC(N)=O [indium-111 labelled] |  |  | female athymic nude mouse, liver | intravenous, 0.037 MBq, 4 h |  | tissue uptake | 0.97 ± 0.13 %ID/g
CCCC[C@H](NC(=O)CNC(=O)CNC(=O)CN1CCN(CC(=O)O)CCN(CC(=O)O)CCN(CC(=O)O)CC1)C(=O)N[C@H]1CC(=O)NCCCC[C@@H](C(N)=O)NC(=O)[C@H](Cc2c[nH]c3ccccc23)NC(=O)[C@H](CCCNC(=N)N)NC(=O)[C@@H](Cc2ccccc2)NC(=O)[C@H](Cc2c[nH]cn2)NC1=O [lutetium-177 labelled] |  |  | C57 mouse, female, tumour | intravenous, 0.037 MBq, 0.5 h |  | tissue uptake | 20.2 ± 4.59 %ID/g
CCCC[C@H](NC(=O)COCCOCCNC(=O)CN1CCN(CC(=O)O)CCN(CC(=O)O)CC1)C(=O)N[C@H]1CC(=O)NCCCC[C@@H](C(N)=O)NC(=O)[C@H](Cc2c[nH]c3ccccc23)NC(=O)[C@H](CCCNC(=N)N)NC(=O)[C@@H](Cc2ccccc2)NC(=O)[C@H](Cc2c[nH]cn2)NC1=O [copper-64 labelled] |  |  | C57 mice, muscle | intravenous, 0.37 MBq, 0.5 h |  | tissue uptake | 1.28 ± 0.39 %ID/g
Cc1cc(-c2ccc(NC(=O)[C@H](CCCCNC(=O)CCN3C(=O)CC(SCCC(=O)N[C@H](Cc4ccccc4)C(=O)N[C@H]4CSSC[C@@H](C(=O)N[C@H](C(=O)O)[C@@H](C)O)NC(=O)[C@H]([C@@H](C)O)NC(=O)[C@H](CCCCN)NC(=O)[C@@H](Cc5c[nH]c6ccccc56)NC(=O)[C@H](Cc5ccc(O)cc5)NC4=O)C3=O)NC(=O)CN3CCN(CC(=O)O)CCN(CC(=O)O)CCN(CC(=O)O)CC3)c(C)c2)ccc1N=Nc1ccc2c(S(=O)(=O)O)cc(S(=O)(=O)O)c(N)c2c1O (stereo partly shown) [lutetium-177 labelled] |  |  | patients with metastatic NETs, lymph node metastases |  |  | initial uptake | 4.5 % injected activity
N=C(N)NCCC[C@@H]1NC(=O)[C@H](CCCCNC(=O)CC[C@H](NC(=O)CC[C@H](NC(=O)CN2CCN(CC(=O)O)CCN(CC(=O)O)CCN(CC(=O)O)CC2)C(=O)N[C@@H](CCC(=O)NCCCC[C@@H]2NC(=O)[C@@H](Cc3ccccc3)NC(=O)[C@H](CC(=O)O)NC(=O)CNC(=O)[C@H](CCCNC(=N)N)NC2=O)C(=O)NCCCC[C@@H]2NC(=O)[C@@H](Cc3ccccc3)NC(=O)[C@H](CC(=O)O)NC(=O)CNC(=O)[C@H](CCCNC(=N)N)NC2=O)C(=O)NCCCC[C@@H]2NC(=O)[C@@H](Cc3ccccc3)NC(=O)[C@H](CC(=O)O)NC(=O)CNC(=O)[C@H](CCCNC(=N)N)NC2=O)NC(=O)[C@@H](Cc2ccccc2)NC(=O)[C@H](CC(=O)O)NC(=O)CNC1=O [indium-111 labelled] |  |  | female athymic nu/nu mice, spleen | intravenous, 111 kBq, 4 h |  | tissue uptake | 1.4 ± 0.95 %ID/g
CCCC[C@H](NC(=O)CNC(=O)CNC(=O)CN1CCN(CC(=O)O)CCN(CC(=O)O)CC1)C(=O)N[C@H]1CC(=O)NCCCC[C@@H](C(N)=O)NC(=O)[C@H](Cc2c[nH]c3ccccc23)NC(=O)[C@H](CCCNC(=N)N)NC(=O)[C@@H](Cc2ccccc2)NC(=O)[C@H](Cc2c[nH]cn2)NC1=O [technetium-99m labelled] |  |  | C57 mouse, stomach | iv, 0.037 MBq, 24 h |  | tissue uptake | 0.06 ± 0.07 %ID/g
N=C(N)NCCC[C@@H]1NC(=O)[C@H](CCCCNC(=O)CNC(=O)CNC(=O)CNC(=O)CC[C@H](NC(=O)CNC(=O)CNC(=O)CNC(=O)CC[C@H](NC(=O)CN2CCN(CC(=O)O)CCN(CC(=O)O)CCN(CC(=O)O)CC2)C(=O)NCC(=O)NCC(=O)NCC(=O)N[C@@H](CCC(=O)NCC(=O)NCC(=O)NCC(=O)NCCCC[C@@H]2NC(=O)[C@@H](Cc3ccccc3)NC(=O)[C@H](CC(=O)O)NC(=O)CNC(=O)[C@H](CCCNC(=N)N)NC2=O)C(=O)NCC(=O)NCC(=O)NCC(=O)NCCCC[C@@H]2NC(=O)[C@@H](Cc3ccccc3)NC(=O)[C@H](CC(=O)O)NC(=O)CNC(=O)[C@H](CCCNC(=N)N)NC2=O)C(=O)NCC(=O)NCC(=O)NCC(=O)NCCCC[C@@H]2NC(=O)[C@@H](Cc3ccccc3)NC(=O)[C@H](CC(=O)O)NC(=O)CNC(=O)[C@H](CCCNC(=N)N)NC2=O)NC(=O)[C@@H](Cc2ccccc2)NC(=O)[C@H](CC(=O)O)NC(=O)CNC1=O [indium-111 labelled] |  |  | female athymic nu/nu mice, bone | intravenous, 0.5 h |  | tissue uptake | 2.26 ± 0.71 %ID/g
Cc1cc(-c2ccc(NC(=O)[C@H](CCCCNC(=O)CCOCCOCCC(=O)N[C@H](Cc3ccccc3)C(=O)N[C@H]3CSSC[C@@H](C(=O)N[C@H](C(=O)O)[C@@H](C)O)NC(=O)[C@H]([C@@H](C)O)NC(=O)[C@H](CCCCN)NC(=O)[C@@H](Cc4c[nH]c5ccccc45)NC(=O)[C@H](Cc4ccc(O)cc4)NC3=O)NC(=O)CN3CCN(CC(=O)O)CCN(CC(=O)O)CCN(CC(=O)O)CC3)c(C)c2)ccc1N=Nc1ccc2c(S(=O)(=O)O)cc(S(=O)(=O)O)c(N)c2c1O [lutetium-177 labelled] |  |  | patients with metastatic neuroendocrine tumours, liver |  | baseline: compound over 177Lu-EB-TATE | residence time ratio | 3.4 fold
Cc1nn(-c2ccc(S(=O)(=O)N[C@H](CO)CC(C)C)cc2)c2nn3nnnc3nc12 | PC-3 | DNA damage, alkaline comet |  | 2 µM, 24 h |  | tail DNA | 58 ± 6.96%
CN1C(=O)[C@@H](Cc2ccc(O)cc2)NC(=O)CNC(=O)[C@H](Cc2ccc3ccccc3c2)NC(=O)[C@H](CCCNC(=N)N)NC(=O)[C@H]1CCCNC(=O)c1ccc(CNC(=O)CN2CCN(CC(=O)O)CCN(CC(=O)O)CCN(CC(=O)O)CC2)cc1 [gallium-68 labelled] |  |  | adult reference man, from C57BL/6 mice data, heart wall | dose not given |  | time-integrated activity coefficient | 0.015 ± 0.005 MBq-h/MBq
NS(=O)(=O)Nc1ncnc(OCCOc2ncc(Br)cn2)c1-c1ccc(Br)cc1 |  | Eadie-Hofstee plot, item: compound formation | male Sprague-Dawley rat, liver microsomes | 1500 mg/kg daily, 4 weeks |  | Km | 2.2 ± 0.2 µmol/L
CC1=C(I)C(C)=[N+]2C1=C(c1ccc(OCCn3cc(CNC(=O)CSC[C@H](NC(=O)c4ccc(-c5nnc(C)nn5)cc4)C(=O)N[C@@H](CCCNC(=N)N)C(=O)N[C@@H](CCCNC(=N)N)C(=O)N[C@@H](CCCNC(=N)N)C(=O)N[C@@H](CCCNC(=N)N)C(=O)N[C@@H](CCCNC(=N)N)C(N)=O)nn3)cc1)c1c(C)c(I)c(C)n1[B-]2(F)F |  |  |  | 1 µM, added: DPBF, 525 nm light | baseline: rose bengal, erythrosine B | singlet oxygen quantum yield | 0.55

Some of these lines once more:
Compound | target or system | assay | system | setting | how to read | endpoint | value
CCCC[C@H](NC(=O)COCCOCCNC(=O)CN1CCN(CC(=O)O)CCN(CC(=O)O)CC1)C(=O)N[C@H]1CC(=O)NCCCC[C@@H](C(N)=O)NC(=O)[C@H](Cc2c[nH]c3ccccc23)NC(=O)[C@H](CCCNC(=N)N)NC(=O)[C@@H](Cc2ccccc2)NC(=O)[C@H](Cc2c[nH]cn2)NC1=O [copper-64 labelled] |  |  | C57 mice, muscle | intravenous, 0.37 MBq, 0.5 h |  | tissue uptake | 1.28 ± 0.39 %ID/g
Cc1cc(-c2ccc(NC(=O)[C@H](CCCCNC(=O)CCOCCOCCC(=O)N[C@H](Cc3ccccc3)C(=O)N[C@H]3CSSC[C@@H](C(=O)N[C@H](C(=O)O)[C@@H](C)O)NC(=O)[C@H]([C@@H](C)O)NC(=O)[C@H](CCCCN)NC(=O)[C@@H](Cc4c[nH]c5ccccc45)NC(=O)[C@H](Cc4ccc(O)cc4)NC3=O)NC(=O)CN3CCN(CC(=O)O)CCN(CC(=O)O)CCN(CC(=O)O)CC3)c(C)c2)ccc1N=Nc1ccc2c(S(=O)(=O)O)cc(S(=O)(=O)O)c(N)c2c1O [lutetium-177 labelled] |  |  | patients with metastatic neuroendocrine tumours, liver |  | baseline: compound over 177Lu-EB-TATE | residence time ratio | 3.4 fold
